Measured values collected from several papers.
Lines come from different studies, so protocols differ. ± marks the error that the study gave.

| Structure (SMILES) | target | assay | system | setting | how to read | endpoint | result |
| --- | --- | --- | --- | --- | --- | --- | --- |
| O=[N+]([O-])c1cccc(O[C@H]2O[C@H](CO)[C@H](O)[C@H](O)[C@H]2O)c1 | ctxB (Vibrio cholerae, UniProt P01556) | binding |  |  | reference: galactose | relative potency | 58 fold |
| COc1ccc(/C=N/NC(=O)C(C)(C)Oc2ccc(Cl)cc2)c(C(=O)O)c1OC | uncharacterized protein (Candidatus Liberibacter solanacearum, UniProt A0A094YYW1) | inhibitor |  | concentration not given, outcome inhibited | reference: mock | phosphatase activity | inhibited |
| CNC(C)C1C(O)CC2(C)C3CCC4C(C)(C)C(NC)CCC45CC35CCC12C (stereo not shown) | Spike glycoprotein (Severe acute respiratory syndrome coronavirus 2, UniProt P0DTC2) | binding |  |  |  | koff | 0.0291 s⁻¹ |
| CC[C@H](C)[C@H](NC(=O)[C@H](Cc1ccccc1)NC(=O)[C@@H](N)C(C)C)C(=O)N[C@@H](CC(N)=O)C(=O)N[C@H](C(=O)N[C@@H](CCCCN)C(=O)N[C@H]1CSSC[C@@H]2NC(=O)[C@H](CCCCN)NC(=O)CNC(=O)[C@H](C)NC(=O)[C@H](C)NC(=O)[C@H](CCCCN)NC(=O)CNC(=O)[C@H](C(C)C)NC(=O)[C@H](C)NC(=O)[C@H](C)NC(=O)[C@H](CCCCN)NC(=O)[C@@H]3CSSC[C@@H](C(=O)N[C@@H](Cc4ccc(O)cc4)C(=O)N4CCC[C@H]4C(=O)O)NC(=O)[C@H](CCCCN)NC(=O)[C@H](CSSC[C@H](NC(=O)[C@H](CCC(=O)O)NC(=O)[C@H](CCCCN)NC(=O)[C@H](CO)NC(=O)CNC(=O)[C@H](CCCNC(=N)N)NC1=O)C(=O)N[C@@H](CC(C)C)C(=O)N1CCC[C@H]1C(=O)N[C@@H](C)C(=O)N3)NC(=O)[C@H](CCCCN)NC(=O)CNC(=O)[C@H](CC(N)=O)NC(=O)[C@H](CCSC)NC2=O)C(C)C | Sh (Drosophila melanogaster, UniProt P08510) | toxin block destabilisation, blocker |  | 360 nM, added: external Cs+ |  | Hill coefficient | 2.3 |
| CC(C)C[C@@H]1NC(=O)[C@H](CCCNC(=N)N)NC(=O)[C@@H]2CCCN2C(=O)[C@@H]2CSSC[C@H](NC(=O)CNC(=O)[C@@H]3CCCN3C(=O)[C@H](CCCCN)NC(=O)[C@H](CC(=O)O)NC(=O)[C@@H](NC(=O)CN)C(C)C)C(=O)N[C@@H](CCCNC(=N)N)C(=O)N[C@@H](Cc3ccc(O)cc3)C(=O)N[C@@H](CC(C)C)C(=O)N[C@@H](Cc3ccccc3)C(=O)NCC(=O)NCC(=O)N[C@H]3CSSC[C@H](NC(=O)CNC1=O)C(=O)N[C@@H](CCCCN)C(=O)NCC(=O)N[C@@H](CCCCN)C(=O)NCC(=O)N[C@@H](Cc1c[nH]cn1)C(=O)N[C@@H](CC(=O)O)C(=O)N[C@@H](Cc1ccc(O)cc1)C(=O)N[C@H](C(=O)N[C@@H](C)C(=O)N[C@@H](Cc1c[nH]c4ccccc14)C(=O)N[C@@H](CC(=O)O)C(=O)NCC(=O)N[C@H](C(=O)N[C@@H](Cc1ccccc1)C(=O)N[C@@H](CO)C(=O)N[C@@H](CC(=O)O)C(=O)O)[C@@H](C)O)CSSC[C@H](NC(=O)[C@H](CC(=O)O)NC(=O)[C@H](CC(=O)O)NC(=O)[C@H](CC(=O)O)NC(=O)[C@H](CO)NC(=O)[C@H](CCCCN)NC3=O)C(=O)N2 | Sodium channel protein type 9 subunit alpha (SCN9A, Homo sapiens, UniProt Q15858) |  | HEK293 | 1 µM, test -10 mV holding -80 mV |  | fast inactivation time constant | 2.7 ± 0.4 ms |
| CSCC[C@H](NC(=O)[C@H](CCN)NC(=O)[C@@H](NC(=O)[C@H](Cc1c[nH]c2ccccc12)NC(=O)[C@H](CCCNC(=N)N)NC(=O)[C@@H](N)CCNc1ccc([N+](=O)[O-])cc1[N+](=O)[O-])[C@@H](C)O)C(=O)N[C@@H](CC(C)C)C(N)=O | Botulinum neurotoxin type F (F, Clostridium botulinum, UniProt A7GBG3) | enzyme activity, inhibitor |  | concentration not given |  | inhibition | 0% |
| CC(C)C[C@H](NC(=O)CNC(=O)[C@H](Cc1ccccc1)NC(=O)[C@@H](NC(=O)[C@@H](NC(=O)c1cccc(S(=O)(=O)F)c1)[C@@H](C)O)C(C)C)C(=O)N[C@@H](CC(N)=O)C(=O)N[C@H](C(=O)N[C@@H](Cc1c[nH]c2ccccc12)C(=O)N[C@@H](CCCCN)C(=O)N[C@@H](CCCNC(=N)N)C(=O)N[C@@H](Cc1ccc(O)cc1)C(=O)N[C@@H](CO)C(=O)N[C@@H](CCCCN)C(=O)NCC(=O)N[C@@H](CCCCNc1ccc([N+](=O)[O-])cc1[N+](=O)[O-])C(N)=O)C(C)C | Spike glycoprotein, RBD (Severe acute respiratory syndrome coronavirus 2, UniProt P0DTC2) | binding |  |  |  | koff | 0.00492 to 0.00514 s⁻¹ |
| CC(=O)N[C@@H](Cc1cn(CCO[C@@H]2O[C@H](CO)[C@H](O)[C@H](O)[C@H]2O)nn1)C(=O)NCC(=O)N[C@@H](C)C(=O)N[C@@H](CCC(=O)O)C(=O)N[C@@H](C)C(=O)N[C@@H](CCC(=O)O)C(=O)N1CCC[C@H]1C(=O)N[C@@H](CCC(=O)O)C(=O)NCC(=O)N[C@@H](C)C(=O)N[C@@H](CCC(=O)O)C(=O)N[C@@H](C)C(=O)N[C@@H](CCC(=O)O)C(=O)N1CCC[C@H]1C(=O)N[C@@H](CCC(=O)O)C(=O)NCC(=O)N[C@@H](C)C(=O)N[C@@H](CCC(=O)O)C(=O)N[C@@H](C)C(=O)N[C@@H](CCC(=O)O)C(=O)N1CCC[C@H]1C(=O)N[C@@H](CCC(=O)O)C(=O)NCC(=O)N[C@@H](C)C(=O)N[C@@H](CCC(=O)O)C(=O)N[C@@H](C)C(=O)N[C@@H](CCC(=O)O)C(=O)N1CCC[C@H]1C(=O)N[C@@H](CCC(=O)O)C(=O)NCC(=O)N[C@@H](C)C(=O)N[C@@H](CCC(=O)O)C(=O)N[C@@H](C)C(=O)N[C@@H](CCC(=O)O)C(=O)N1CCC[C@H]1C(=O)N[C@@H](Cc1cn(CCO[C@@H]2O[C@H](CO)[C@H](O)[C@H](O)[C@H]2O)nn1)C(=O)NCC(=O)NCC(=O)NCC(=O)NCC(N)=O | ctxB, pentamer (Vibrio cholerae, UniProt P01556) |  |  | concentration not given | reference: galactose | inhibition potency | 45 fold |
| CCC[C@H](NC(=O)[C@H](CC(C)C)NC(=O)OCc1ccccc1)C(=O)C(=O)NCc1ccccn1 | Replicase polyprotein 1ab, main protease (rep, Middle East respiratory syndrome-related coronavirus, UniProt K9N7C7) | thermal stability |  |  |  | ΔTm | 0.81 °C |
| CC[C@H](C)[C@@H]1NC(=O)[C@H](CCCNC(=N)N)NC(=O)[C@H](CO)NC(=O)[C@H](CCC(=O)O)NC(=O)[C@H](CC(=O)O)NC(=O)CNC(=O)CNC(=O)[C@H]([C@@H](C)O)NC(=O)[C@H](Cc2ccccc2)NC(=O)[C@H](CO)NC(=O)[C@H]([C@@H](C)O)NC(=O)[C@H](C)NC(=O)[C@@H]2CSSC[C@@H](C(=O)N[C@@H](Cc3ccc(O)cc3)C(=O)N[C@@H](Cc3ccccc3)C(=O)N[C@H](C(=O)N[C@H](C(=O)NCC(=O)O)[C@@H](C)O)[C@@H](C)O)NC(=O)[C@H]([C@@H](C)O)NC(=O)[C@H](CSSC[C@H](NC(=O)[C@H](CCC(=O)O)NC(=O)[C@H](CO)NC(=O)[C@H](CCCCN)NC(=O)[C@H](Cc3ccc(O)cc3)NC(=O)[C@@H]3CCCN3C(=O)[C@H](Cc3ccccc3)NC(=O)[C@H](CCCCN)NC(=O)[C@H](CCCNC(=N)N)NC(=O)[C@H](CCCCN)NC(=O)[C@H](CCCCN)NC(=O)[C@H](Cc3ccc(O)cc3)NC(=O)[C@@H]3CCCN3C(=O)[C@@H](NC(=O)[C@H](CC(=O)O)NC(=O)[C@H](CCCCN)NC(=O)[C@H](CCCCN)NC(=O)[C@@H](NC(=O)[C@@H](NC(=O)[C@@H](N)CCC(=O)O)C(C)C)[C@@H](C)CC)[C@@H](C)O)C(=O)N[C@@H](CC(C)C)C(=O)N[C@@H](CCCCN)C(=O)N[C@@H](C)C(=O)N2)NC(=O)[C@H](CCCCN)NC(=O)[C@H](Cc2ccccc2)NC(=O)[C@H](Cc2ccccc2)NC(=O)CNC(=O)[C@@H]2CCCN2C(=O)[C@H](CCCCN)NC(=O)CNC(=O)[C@H](CCC(=O)O)NC(=O)[C@H](CCC(N)=O)NC1=O | Potassium voltage-gated channel subfamily KQT member 4 (KCNQ4, Homo sapiens, UniProt P56696, D288A) | potassium current, whole-cell patch clamp |  | 10 µM | reference: wild type | loss of inhibition | ~97% |
